Experimental data from different studies.
Parts stem from different laboratories: compare values within a part only. Positions count from the first letter of the parent shown.

Block 1
Target: RNA binding protein fox-1 homolog 2, RRM domain, GST-SBP tag (RBFOX2, Homo sapiens, UniProt O43251-10, residues 100-194)
Technique: RNA Bind-n-Seq
Form: RNA
Medium: in vitro
Concentration: 365 nM
Notes: natural RNA segment, single round, ends assumed
Baseline: no-protein control
Reading: higher = stronger binding
Target sequence (chain): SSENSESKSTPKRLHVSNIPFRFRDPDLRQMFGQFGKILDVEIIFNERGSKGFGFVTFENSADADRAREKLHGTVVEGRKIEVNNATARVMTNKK
For `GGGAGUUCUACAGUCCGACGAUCAGCGAGAUGGGUUUGUUCGGUGCCAGCCGACCAAGAUUGACUAGUUUGUUGGACUUAAACGACGAUUUGCUGCUGUGAACCCAGCAGGGUCGCCUCCCUCUGCAUCGGCCUGGAAUUCUCGGGUGCCAA`, “RBNS enrichment (R)” read 1.4.
`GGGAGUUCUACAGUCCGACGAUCAAGACCAAGGCAGAUAGAUGCAGCUAUGUGUACAUUGUAUAUUUUUGUGAACUUCUCAAGCACGCACUCCCGUUUCCCUCUGCUUUGCAGAGGUUUUGAUGUAUCCCUGCUGGAAUUCUCGGGUGCCAA`: “RBNS enrichment (R)” 1.13.
`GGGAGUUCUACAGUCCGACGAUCAGGUCUCGCUGAUGCUGGGCUGGGUGCGACCCCAUCUGCCCAGGACGGGGCCGGCCAGGUGGGCGGGCAGCACAGCAAGGAGGCUGGCUGGGGCCUAUCAGUGUGCCCCCUGGAAUUCUCGGGUGCCAA` — result for “RBNS enrichment (R)”: 0.35.
`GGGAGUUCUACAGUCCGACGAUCUAAAGUAUAUGUUUCUCAUGAGACUGAGGGUUUUAUUUUUAAAAUCCCCUUACAUUUCUAGCACACCUUGGCCAUCACAGUAGACAAAGAAUACAGAGAAGGCAGUGGGUUGGAAUUCUCGGGUGCCAA` — result for “RBNS enrichment (R)”: 0.634.
For `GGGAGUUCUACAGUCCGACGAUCGGUAUAUGUUACCCACAGUCCAUUUCAGUUAUUCCCACAAGUCAGGUCCAGAUAAAUGAGGGUUAUCAGCUAACUGAUAUGUUAUCAUUGAGGUUCGUCAAUGAAUUUGUUGGAAUUCUCGGGUGCCAA`, “RBNS enrichment (R)” read 0.417.
Under “RBNS enrichment (R)”, `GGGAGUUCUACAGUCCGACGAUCAGAAACUUCCAAAUCCCCUAAGCAGACCACUGAUAAAACCAUGUAGAAAAUUUGUUAUUUUGCAACCUCGCUGGACUCUCAGUCUCUGAGCAGUGAAUGAUUCAGUGUUAUGGAAUUCUCGGGUGCCAA` is recorded as 0.729.
For `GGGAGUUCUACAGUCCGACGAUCUUGAUUUUUUUGAUGAUAGACUAUAUACACAGGCUGUUCCCGUUAUGUAAGUCAGUUCUUCAGGCUCAUUUGCUGUGCUGGUUUUACUAUUAUUUGUUUUCAAUGUAUAAUGGAAUUCUCGGGUGCCAA`, “RBNS enrichment (R)” read 0.494.
For `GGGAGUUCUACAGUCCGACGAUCUAAUGUACUUGAGUUUCAUUGUUCUUUUAGUUUGUAUUCUUAUAAAAAAUGUUUACACUCUGCAGAUUGAUUUUUUUUUUUUAGUACUGUGGCUUUCUUUUCCUAUUUUAUGGAAUUCUCGGGUGCCAA`, “RBNS enrichment (R)” read 0.818.
`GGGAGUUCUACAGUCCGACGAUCAUUUCAACAUAUGGCUUCAGAACAUGAAGAUGUUCUUGUAUGGAUUAUAGUAUCUAGUAUUCAAAAAUGCCUGCAUCUCUUCUCUUAUUUAUUGUAAGUUUUUAAAUGUAUGGAAUUCUCGGGUGCCAA` — result for “RBNS enrichment (R)”: 0.324.
For `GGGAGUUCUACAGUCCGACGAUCCCAGUGUCUUCCCUGCUGAGUACCAGGAGAGGUCCUGCCCCAUCCUCUCUCUGAAGCCAGGGCCCUUCCAUUCCAUUUAGCCUUUGGAUCAUCCUGGCUGGGAGAAGUGGUGGAAUUCUCGGGUGCCAA`, “RBNS enrichment (R)” read 0.268.
For `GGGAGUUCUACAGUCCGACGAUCUCACUCCGGACAGUCCGACUUCCGUGUGGAAUGUCAGUCAGUCGGCUAGAGGAGUGGCAUCUGGAGCUCAGAAACGUGAGAGACUAUUUGUGUACAAAAGGCAGGAAAAAUGGAAUUCUCGGGUGCCAA`, “RBNS enrichment (R)” read 5.07.
`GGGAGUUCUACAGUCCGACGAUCGUGAACAAUCUGGGUAAAAGGCUACCUUUAAUUCUAAGCUUCAUUUUUUUUUGGGGGGGGGUUACAUUUUAAUCAUAAAUUCUUUUUUGCAAAGCCCAGGUUCUUGUUCCUGGAAUUCUCGGGUGCCAA`: “RBNS enrichment (R)” 0.834.

Block 2
Substance: PhoQ, residues 284 288 289 292 302 303 TLMATV
Technique: Sort-seq
Measured: YFP reporter
Medium: E. coli
Notes: PhoQ-PhoP variant library
Together with: 10 µM Mg2+
Baseline: high Mg2+ state
Reading: higher = stronger signaling
It gave 10.1 for fold induction (PhoP, residues 12 14 15 18 19 SHWTV (Escherichia coli, UniProt P23836)).
The fold induction was 8.08 (PhoP, residues 12 14 15 18 19 QYCSL (Escherichia coli, UniProt P23836)).
It gave 60.6 for fold induction (PhoP, residues 12 14 15 18 19 STHWV (Escherichia coli, UniProt P23836)).

Block 3
Target: CCNE2, cyclin fold, Cln2 fusion (human)
Technique: yeast growth competition, sequencing
Medium: yeast
Notes: strong parent motif
Baseline: not given
Reading: higher = stronger binding
Starting sequence: CDC25A docking peptide (human); PPHRRRLLFACSP
`PPHRRRLLFQCSP [A10Q]`: “normalised enrichment score” 2.04.
For `PPHQRRLLFACSP [R4Q]`, “normalised enrichment score” read 1.17.
`PPHRRILLFACSP [R6I]`: “normalised enrichment score” 0.539.
For `PPHRRRLLFACSC [P13C]`, “normalised enrichment score” read 2.26.
`PPHRPRLLFACSP [R5P]`: “normalised enrichment score” 0.446.
`PPHRRRSLFACSP [L7S]` — result for “normalised enrichment score”: 0.445.
Under “normalised enrichment score”, `PPHRRRLLFACQP [S12Q]` is recorded as 1.05.
`PPHRRNLLFACSP [R6N]` — result for “normalised enrichment score”: 0.874.
For `PPHRRRLLTACSP [F9T]`, “normalised enrichment score” read 0.819.
`PPHRRRLLFACGP [S12G]`: “normalised enrichment score” 2.24.
For `PPHRRRLLDACSP [F9D]`, “normalised enrichment score” read 0.338.
`PPHRRRLLFACSS [P13S]` — result for “normalised enrichment score”: 2.34.
Under “normalised enrichment score”, `PPHRRRLLFATSP [C11T]` is recorded as 2.09.

Block 4
Target: RING finger protein unkempt homolog, zinc fingers 1-6, GST-SBP tag (UNK, Homo sapiens, UniProt Q9C0B0, residues 30-357)
Technique: RNA Bind-n-Seq
Form: RNA
Medium: in vitro
Concentration: not given
Notes: RNA with constant flanks, human and mouse sites, ends assumed
Baseline: input RNA pool
Reading: higher = stronger binding
Target sequence (chain): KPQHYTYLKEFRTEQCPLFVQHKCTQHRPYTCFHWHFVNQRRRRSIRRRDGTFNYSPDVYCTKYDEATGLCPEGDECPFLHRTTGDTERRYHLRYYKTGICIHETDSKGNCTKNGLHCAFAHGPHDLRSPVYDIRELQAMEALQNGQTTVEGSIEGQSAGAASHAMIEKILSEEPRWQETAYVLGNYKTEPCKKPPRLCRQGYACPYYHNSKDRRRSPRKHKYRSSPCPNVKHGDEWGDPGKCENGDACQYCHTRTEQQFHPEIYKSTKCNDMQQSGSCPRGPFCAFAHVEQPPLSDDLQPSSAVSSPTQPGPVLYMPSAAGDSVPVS
The bound/input enrichment of `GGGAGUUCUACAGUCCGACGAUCAAUUGGAAACCCUUUGUAUAUGGCGGCCUUGCCUCUAUCGUGGCUGAGUUUGGGACUUUCCCUGUGGACCUUACCAAAACACGACUUCAGGUUCAAGGCCAAAGCAUUGAUGCCCGUUUCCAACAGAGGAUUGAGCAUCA` is reported as 0.107 ratio.
`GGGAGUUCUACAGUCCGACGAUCUGAAUUUUGUAUAGUACUAGGUUAGAACAUUGCUUAAUCCUUUUAAAAAAAAUGCAUUUACGUAAACACGAAUACUGAAAUUGUUGGAUUUUUUAACUAUAUCUGACAUAAUUUUAUUCACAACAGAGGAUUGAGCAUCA` gave a bound/input enrichment of 5.36 ratio.
The bound/input enrichment of `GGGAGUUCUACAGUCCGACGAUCUACCUUAUAUUACAUCUCAUCUCCACAGUAUAUACAAGAAGAGAUGUCCUUCCACUAGGAAAAUUUACAGUUAACUUGAGUGGUUGCCCACGGAAUAGUACCUUCACAGAACACUUGUAUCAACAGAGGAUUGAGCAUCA` is reported as 2.58 ratio.
For `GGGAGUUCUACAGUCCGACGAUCGCCCGGAAAACUGUGAAAAAAAUACUUAGUGACAUUGGGUUGGAAUACUGUAAAGAACAUAUAGAAGAUUUUAAACAGUUUGAACCUAAUGACUUUUAUUUGAAAAACACUACAUGGGAGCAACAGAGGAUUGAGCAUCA`, the bound/input enrichment was 0.532 ratio.
With `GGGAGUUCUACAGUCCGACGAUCGCGCCCCCCGGGCGCCCCGAUGUUUUUCCUCCUCCCCUCAGCUCUGAGCAUAAUGGGCAGGUAGCUGAGGACGCAGUGUCCCGGCCAAAGGAUGACGGCGUACCAGAGGUCCGAGCUGCUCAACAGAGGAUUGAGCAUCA` the bound/input enrichment was 0.122 ratio.
For `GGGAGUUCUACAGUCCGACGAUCGGACCCCAGGUCAGGGGCUCCCUACAUUCCCCAGAGUGGGAUCCACUUCUUGGUUCCUGGGAUGGCGAUGGGGACUCUGCCGCUGUGUAGGGACCAGUGGGAUGGGCUCUACCUCUCUUUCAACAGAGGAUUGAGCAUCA`, the bound/input enrichment was 0.0741 ratio.
For `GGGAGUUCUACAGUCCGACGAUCGUUGUAAGUAGUAUGCCAGAAAGAGCUUCAGAGUCUUCUUCAGAGGAAAAAGAUGAUUAUGAAAUUUUUGUAAAAGUUAAGGACACUCACGAAAAAAGCAAGAAAAAUAAGAACCGUGAUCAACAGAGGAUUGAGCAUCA`, the bound/input enrichment was 0.771 ratio.
`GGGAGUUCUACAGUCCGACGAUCACUGGAGGGGCAGCCUCUGUGAAGCAGCACCAUUCAAGUGCCCACAACAAAGACAUUGCUUUAGGGGUAUUUGAUGUGGUGGUGACAGACCCCUCAUGCCCAGCCUCGGUGCUCAAGUGUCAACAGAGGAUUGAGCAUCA` has a bound/input enrichment of 0.102 ratio.
For `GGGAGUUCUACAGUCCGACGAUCGUCACAGGGCUCCUGAAGGAGCUGCACGUCCGACUGGAGAGACGGUCAAGGCUGGUGGUUCUGUCAACCGUCGGGGUGCCAGGCACGGGCAAGUCCACACUCCUCAACACCAUGUUUGGGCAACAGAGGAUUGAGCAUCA`, the bound/input enrichment was 0.16 ratio.
`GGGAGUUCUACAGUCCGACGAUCGGCAAGAUGCAUGCUUAUGAGAAGAUCCACCAGUGCUCUGAAUGUAACUUUGCCACUGCCCACAAAAGGGUGCUUAUCCGACACAUGCUGCUGCAUACUGGAGAGAAGCCUCACAAAUGUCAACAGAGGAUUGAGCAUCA` gave a bound/input enrichment of 0.108 ratio.
`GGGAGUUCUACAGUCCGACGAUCGCCCUAGGGAUAGACAAUGUCCUCAGGUUCCACUUCAUGUCUCCCCCGCCAGCACAGUCGAUGGUUCAAGCCUUGGAGCUGCUCUAUGCUCUCGGAGGUCUGGACAAAGACUGUCGCCUACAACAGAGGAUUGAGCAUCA` gave a bound/input enrichment of 0.136 ratio.

Repeated from above (block 1):
For `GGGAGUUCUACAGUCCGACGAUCUUGAUUUUUUUGAUGAUAGACUAUAUACACAGGCUGUUCCCGUUAUGUAAGUCAGUUCUUCAGGCUCAUUUGCUGUGCUGGUUUUACUAUUAUUUGUUUUCAAUGUAUAAUGGAAUUCUCGGGUGCCAA`, “RBNS enrichment (R)” read 0.494.
For `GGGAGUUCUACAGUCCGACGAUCUAAUGUACUUGAGUUUCAUUGUUCUUUUAGUUUGUAUUCUUAUAAAAAAUGUUUACACUCUGCAGAUUGAUUUUUUUUUUUUAGUACUGUGGCUUUCUUUUCCUAUUUUAUGGAAUUCUCGGGUGCCAA`, “RBNS enrichment (R)” read 0.818.
`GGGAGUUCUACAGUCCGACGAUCAUUUCAACAUAUGGCUUCAGAACAUGAAGAUGUUCUUGUAUGGAUUAUAGUAUCUAGUAUUCAAAAAUGCCUGCAUCUCUUCUCUUAUUUAUUGUAAGUUUUUAAAUGUAUGGAAUUCUCGGGUGCCAA` — result for “RBNS enrichment (R)”: 0.324.
